Measurements gathered from unrelated publications.
Parts stem from different laboratories: compare values within a part only. Several values in a cell are separate wells, animals, samples, runs or records.
UniProt P08922, sequence (whole entry, looked up): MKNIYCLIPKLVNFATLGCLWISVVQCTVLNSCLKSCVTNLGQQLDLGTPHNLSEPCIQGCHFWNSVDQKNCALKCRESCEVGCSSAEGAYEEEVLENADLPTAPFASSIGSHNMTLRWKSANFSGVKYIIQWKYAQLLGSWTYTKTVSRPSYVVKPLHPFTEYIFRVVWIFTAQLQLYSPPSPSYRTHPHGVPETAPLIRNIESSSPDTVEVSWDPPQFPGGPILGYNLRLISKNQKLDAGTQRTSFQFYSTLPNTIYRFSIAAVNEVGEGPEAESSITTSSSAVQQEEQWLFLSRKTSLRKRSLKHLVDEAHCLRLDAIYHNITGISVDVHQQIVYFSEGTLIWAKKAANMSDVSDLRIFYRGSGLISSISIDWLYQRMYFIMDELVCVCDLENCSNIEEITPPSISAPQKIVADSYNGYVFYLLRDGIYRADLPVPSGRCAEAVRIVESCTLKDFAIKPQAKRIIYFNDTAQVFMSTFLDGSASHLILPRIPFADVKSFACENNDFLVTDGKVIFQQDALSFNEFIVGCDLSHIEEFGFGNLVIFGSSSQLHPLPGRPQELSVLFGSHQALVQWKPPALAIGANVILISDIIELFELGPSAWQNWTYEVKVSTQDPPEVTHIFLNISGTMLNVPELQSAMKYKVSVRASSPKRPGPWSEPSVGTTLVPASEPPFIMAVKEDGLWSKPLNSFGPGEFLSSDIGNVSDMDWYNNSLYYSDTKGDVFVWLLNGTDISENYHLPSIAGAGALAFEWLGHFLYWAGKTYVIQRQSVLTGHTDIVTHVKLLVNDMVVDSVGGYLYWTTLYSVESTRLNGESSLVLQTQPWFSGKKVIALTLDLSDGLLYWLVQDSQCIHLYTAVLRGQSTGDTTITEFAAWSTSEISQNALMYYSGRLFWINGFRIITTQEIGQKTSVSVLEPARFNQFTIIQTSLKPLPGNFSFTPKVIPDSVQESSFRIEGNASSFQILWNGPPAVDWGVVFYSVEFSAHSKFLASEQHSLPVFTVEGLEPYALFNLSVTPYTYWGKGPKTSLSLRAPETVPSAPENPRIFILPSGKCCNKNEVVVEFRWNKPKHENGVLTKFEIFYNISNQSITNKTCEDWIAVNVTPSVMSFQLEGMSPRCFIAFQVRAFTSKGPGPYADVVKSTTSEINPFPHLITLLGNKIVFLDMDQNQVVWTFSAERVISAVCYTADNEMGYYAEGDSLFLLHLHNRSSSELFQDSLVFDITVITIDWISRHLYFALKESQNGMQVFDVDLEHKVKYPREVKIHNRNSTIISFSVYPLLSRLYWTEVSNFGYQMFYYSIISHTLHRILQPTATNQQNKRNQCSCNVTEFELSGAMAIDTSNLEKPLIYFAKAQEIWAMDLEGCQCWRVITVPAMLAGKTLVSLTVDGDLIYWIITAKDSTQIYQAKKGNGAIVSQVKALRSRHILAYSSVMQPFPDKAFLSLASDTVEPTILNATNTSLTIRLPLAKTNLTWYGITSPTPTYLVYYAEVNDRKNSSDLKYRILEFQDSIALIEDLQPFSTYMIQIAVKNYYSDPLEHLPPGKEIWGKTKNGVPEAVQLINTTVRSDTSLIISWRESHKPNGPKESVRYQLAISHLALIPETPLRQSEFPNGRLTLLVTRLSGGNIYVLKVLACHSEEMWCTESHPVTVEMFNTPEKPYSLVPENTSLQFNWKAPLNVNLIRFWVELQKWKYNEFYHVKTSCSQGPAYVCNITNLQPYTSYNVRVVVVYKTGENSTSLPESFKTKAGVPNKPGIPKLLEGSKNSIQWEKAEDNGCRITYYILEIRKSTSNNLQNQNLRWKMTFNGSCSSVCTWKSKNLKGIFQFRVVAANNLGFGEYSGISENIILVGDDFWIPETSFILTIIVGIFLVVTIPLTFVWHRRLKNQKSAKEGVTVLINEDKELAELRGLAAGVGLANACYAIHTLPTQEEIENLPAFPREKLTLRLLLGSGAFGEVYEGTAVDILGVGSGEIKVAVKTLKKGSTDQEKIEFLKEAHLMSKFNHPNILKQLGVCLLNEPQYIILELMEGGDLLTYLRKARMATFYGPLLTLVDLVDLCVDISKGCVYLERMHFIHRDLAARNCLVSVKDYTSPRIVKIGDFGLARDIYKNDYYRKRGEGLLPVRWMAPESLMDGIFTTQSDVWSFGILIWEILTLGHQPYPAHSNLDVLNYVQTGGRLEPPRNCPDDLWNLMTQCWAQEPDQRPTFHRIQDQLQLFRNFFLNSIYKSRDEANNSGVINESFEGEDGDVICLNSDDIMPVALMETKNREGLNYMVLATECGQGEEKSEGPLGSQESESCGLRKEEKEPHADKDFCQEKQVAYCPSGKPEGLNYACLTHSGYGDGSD

Block 1 — species: mouse; matrix: microsomes or S9; tested at: 2 µM; time: 0.5 h; quantity: remaining compound
CCOc1cc(CNC(C)c2ccccc2)ccc1OCC(C)C (stereo not shown): < 1%
Cc1nc(=N)nc2ncc(C(=O)c3ccccc3O)cn12: 3.66%
Clc1ccc(Nc2ccc(-n3ccnc3)nn2)cc1: 17.8%
Cc1cc(C2CN(C(=O)Cc3ccon3)CCO2)ccc1F (stereo not shown): 2.3%
Cc1ccc(NC(=O)N2Cc3c(sc4c3CCCC4)-n3cccc3C2c2cccs2)cc1Cl (stereo not shown): 46.6%
Cc1cc(C)c(S(=O)(=O)N2CCN(c3cc(C)nc(N4CCCC4)n3)CC2)c(C)c1: 0.092%
Cc1cc(C)nc(N2CCn3c(nnc3C3CCCN3C)C2)n1 (stereo not shown): 12.9%
CC(C)c1nc(C#N)c(NNC(=O)CC2CCCCC2)o1: 34.1%

Block 2 — organism: Sarcocystis neurona; effect on: parasite activity; tested at: 10 µM; time: 96 h; quantity: activity class
CC(C)(C(=O)O)c1ccc(C(O)CCCN2CCC(C(O)(c3ccccc3)c3ccccc3)CC2)cc1 (stereo not shown): inactive
COc1ccccc1OCC(O)CN1CCN(CC(=O)Nc2c(C)cccc2C)CC1 (stereo not shown): inactive
CCN(CC)CCOC(=O)c1ccc(N)cc1: inactive
Cc1ncc([N+](=O)[O-])n1CC(C)O (stereo not shown): inactive
CN(C)CC[C@@H](c1ccc(Br)cc1)c1ccccn1: inactive
C[C@H](CCC(=O)O)[C@H]1CC[C@H]2[C@@H]3[C@@H](O)C[C@@H]4C[C@H](O)CC[C@]4(C)[C@H]3CC[C@]12C: inactive
OC(CCN1CCCC1)(c1ccccc1)C1CCCCC1 (stereo not shown): inactive
O=C1[C@H](CC[C@H](O)c2ccc(F)cc2)[C@@H](c2ccc(O)cc2)N1c1ccc(F)cc1: inactive

Block 3 — effect on: cell-free assay; technique: competition with immobilised ligand; tested at: 1 µM; quantity: remaining binding
SMILES: O=C(NS(=O)(=O)c1ccc(NCC2CCOCC2)c([N+](=O)[O-])c1)c1ccc(N2CCN(Cc3ccc(C(F)(F)F)cc3-c3ccc(Cl)cc3)CC2)cc1Oc1cnc2[nH]ccc2c1
Serine/threonine-protein kinase PAK 3 (PAK3, Homo sapiens, UniProt O75914): 77%
Microtubule-associated serine/threonine-protein kinase 1 (MAST1, Homo sapiens, UniProt Q9Y2H9): 100%
Peripheral plasma membrane protein CASK (CASK, Homo sapiens, UniProt O14936): 80%
Tyrosine-protein kinase Lck (LCK, Homo sapiens, UniProt P06239): 100%
Fibroblast growth factor receptor 3 (FGFR3, Homo sapiens, UniProt P22607, G697C): 100%
3-phosphoinositide-dependent protein kinase 1 (PDPK1, Homo sapiens, UniProt O15530): 70%
Mitogen-activated protein kinase kinase kinase 2 (MAP3K2, Homo sapiens, UniProt Q9Y2U5): 100%
Tyrosine-protein kinase ABL1, phosphorylated (ABL1, Homo sapiens, UniProt P00519, T315I): 100%
G protein-coupled receptor kinase 3 (GRK3, Homo sapiens, UniProt P35626): 78%
Proto-oncogene tyrosine-protein kinase ROS (ROS1, Homo sapiens, UniProt P08922): 87%
Mitogen-activated protein kinase 15 (MAPK15, Homo sapiens, UniProt Q8TD08): 94%
Testis-specific serine/threonine-protein kinase 3 (TSSK3, Homo sapiens, UniProt Q96PN8): 79%
Protein kinase C eta type (PRKCH, Homo sapiens, UniProt P24723): 100%
Tyrosine-protein kinase BTK (BTK, Homo sapiens, UniProt Q06187): 100%
Serine/threonine-protein kinase D2 (PRKD2, Homo sapiens, UniProt Q9BZL6): 100%
Mitogen-activated protein kinase 10 (MAPK10, Homo sapiens, UniProt P53779): 82%

Block 4 — effect on: enzyme activity; mode: inhibitor; tested at: 77 µM; reference: untreated; quantity: remaining activity
Target: DNA polymerase theta, ATPase domain (POLQ, Homo sapiens, UniProt O75417)
UniProt O75417, sequence (whole entry, unmodified, looked up): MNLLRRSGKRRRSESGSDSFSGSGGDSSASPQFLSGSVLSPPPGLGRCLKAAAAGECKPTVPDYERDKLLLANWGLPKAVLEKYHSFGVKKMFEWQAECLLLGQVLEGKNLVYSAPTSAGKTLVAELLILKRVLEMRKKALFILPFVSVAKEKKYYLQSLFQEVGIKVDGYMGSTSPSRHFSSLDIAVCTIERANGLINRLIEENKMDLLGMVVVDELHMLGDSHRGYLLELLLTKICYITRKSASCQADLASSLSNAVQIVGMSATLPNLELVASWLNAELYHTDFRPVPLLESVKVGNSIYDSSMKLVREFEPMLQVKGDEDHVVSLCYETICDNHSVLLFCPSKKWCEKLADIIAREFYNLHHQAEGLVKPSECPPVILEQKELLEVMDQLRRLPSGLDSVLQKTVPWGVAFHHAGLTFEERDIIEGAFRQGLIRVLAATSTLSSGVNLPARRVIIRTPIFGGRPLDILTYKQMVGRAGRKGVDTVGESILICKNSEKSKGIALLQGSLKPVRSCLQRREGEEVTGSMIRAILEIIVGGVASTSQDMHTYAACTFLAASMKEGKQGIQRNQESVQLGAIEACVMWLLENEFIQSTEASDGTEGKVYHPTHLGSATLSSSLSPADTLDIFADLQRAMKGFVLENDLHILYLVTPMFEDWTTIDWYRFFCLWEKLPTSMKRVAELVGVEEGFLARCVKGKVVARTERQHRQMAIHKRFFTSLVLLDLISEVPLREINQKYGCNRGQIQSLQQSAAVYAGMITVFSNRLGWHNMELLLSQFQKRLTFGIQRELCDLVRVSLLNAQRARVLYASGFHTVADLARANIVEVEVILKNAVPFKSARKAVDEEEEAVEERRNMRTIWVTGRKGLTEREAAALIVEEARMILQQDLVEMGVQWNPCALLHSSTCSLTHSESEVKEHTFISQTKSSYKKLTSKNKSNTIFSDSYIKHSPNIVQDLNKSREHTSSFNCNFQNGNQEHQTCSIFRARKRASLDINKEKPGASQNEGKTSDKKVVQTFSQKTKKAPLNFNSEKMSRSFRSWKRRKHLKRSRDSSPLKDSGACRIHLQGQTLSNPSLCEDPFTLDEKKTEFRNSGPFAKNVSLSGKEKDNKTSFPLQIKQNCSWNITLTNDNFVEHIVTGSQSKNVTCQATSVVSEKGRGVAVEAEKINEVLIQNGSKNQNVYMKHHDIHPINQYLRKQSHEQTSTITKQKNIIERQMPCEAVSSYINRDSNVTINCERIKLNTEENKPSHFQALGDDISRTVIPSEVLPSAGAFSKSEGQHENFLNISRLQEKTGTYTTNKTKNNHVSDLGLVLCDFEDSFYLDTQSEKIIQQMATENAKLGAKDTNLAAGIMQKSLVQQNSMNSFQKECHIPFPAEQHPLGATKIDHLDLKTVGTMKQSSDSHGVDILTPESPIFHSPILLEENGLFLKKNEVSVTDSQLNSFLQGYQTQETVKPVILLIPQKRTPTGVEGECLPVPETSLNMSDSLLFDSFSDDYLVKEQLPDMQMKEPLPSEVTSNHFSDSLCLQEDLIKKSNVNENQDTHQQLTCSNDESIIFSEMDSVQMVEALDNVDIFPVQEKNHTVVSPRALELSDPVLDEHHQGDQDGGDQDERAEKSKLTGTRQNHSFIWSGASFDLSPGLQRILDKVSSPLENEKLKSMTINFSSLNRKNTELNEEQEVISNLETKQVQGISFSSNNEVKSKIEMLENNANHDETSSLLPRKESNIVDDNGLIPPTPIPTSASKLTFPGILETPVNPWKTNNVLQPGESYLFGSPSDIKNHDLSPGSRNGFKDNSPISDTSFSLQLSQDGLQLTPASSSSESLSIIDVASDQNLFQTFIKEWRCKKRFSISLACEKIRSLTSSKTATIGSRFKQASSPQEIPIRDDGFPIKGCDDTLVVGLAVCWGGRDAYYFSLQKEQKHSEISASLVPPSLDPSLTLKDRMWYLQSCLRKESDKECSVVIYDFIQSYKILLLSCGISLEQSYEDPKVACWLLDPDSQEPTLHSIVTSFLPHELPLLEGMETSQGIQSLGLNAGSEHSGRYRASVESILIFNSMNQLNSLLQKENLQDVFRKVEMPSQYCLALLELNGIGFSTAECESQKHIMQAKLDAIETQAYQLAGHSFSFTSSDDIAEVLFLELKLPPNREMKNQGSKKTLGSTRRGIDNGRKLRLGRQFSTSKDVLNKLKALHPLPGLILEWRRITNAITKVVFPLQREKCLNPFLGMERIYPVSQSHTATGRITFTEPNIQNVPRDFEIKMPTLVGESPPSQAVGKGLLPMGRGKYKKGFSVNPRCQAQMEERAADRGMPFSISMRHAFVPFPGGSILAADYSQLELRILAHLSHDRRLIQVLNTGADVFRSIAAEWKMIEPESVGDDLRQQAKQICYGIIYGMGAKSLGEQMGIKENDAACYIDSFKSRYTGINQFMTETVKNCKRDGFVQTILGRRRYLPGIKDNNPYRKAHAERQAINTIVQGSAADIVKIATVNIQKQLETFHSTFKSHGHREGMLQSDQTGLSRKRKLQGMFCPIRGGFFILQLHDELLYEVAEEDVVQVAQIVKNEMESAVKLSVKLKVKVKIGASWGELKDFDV
C[C@]12C=CC(=O)C=C1CC[C@H]1[C@@H]3C[C@@H](O)[C@](O)(C(=O)CO)[C@@]3(C)C[C@H](O)[C@@]12F: 86.6% and 97.1%
OCc1c[nH]c2ccccc12: 102%
COc1ccc(-c2cc(=O)c3c(O)cc(O)cc3o2)cc1: 102%
O=C(O)Cc1ccc(-c2ccccc2)cc1: 102%
CN1C[C@H](O)[C@@H](O)[C@H](O)[C@H]1CO: 106%

For quick reference, copied from above (block 3):
Peripheral plasma membrane protein CASK (CASK, Homo sapiens, UniProt O14936): 80%
Tyrosine-protein kinase Lck (LCK, Homo sapiens, UniProt P06239): 100%
Fibroblast growth factor receptor 3 (FGFR3, Homo sapiens, UniProt P22607, G697C): 100%
3-phosphoinositide-dependent protein kinase 1 (PDPK1, Homo sapiens, UniProt O15530): 70%
